Results from different studies.
Each numbered part is a random draw from the data of one study; scales do not carry over between parts. Several values in a cell are separate wells, animals, samples, runs or records. Changes are numbered by the printed parent chain.
UniProt P41143, sequence (whole entry, looked up): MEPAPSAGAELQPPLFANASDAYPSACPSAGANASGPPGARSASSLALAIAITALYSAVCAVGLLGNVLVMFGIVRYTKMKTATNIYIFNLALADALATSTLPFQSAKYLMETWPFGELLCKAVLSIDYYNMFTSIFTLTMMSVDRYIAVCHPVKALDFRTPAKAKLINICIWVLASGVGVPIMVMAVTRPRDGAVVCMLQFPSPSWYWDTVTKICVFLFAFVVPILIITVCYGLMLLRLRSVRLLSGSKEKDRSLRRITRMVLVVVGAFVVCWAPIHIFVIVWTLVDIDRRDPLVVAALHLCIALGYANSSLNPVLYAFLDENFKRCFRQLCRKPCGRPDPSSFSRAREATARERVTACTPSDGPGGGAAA

Sample 1
Target: CCNB1, cyclin fold, Cln2 fusion (human)
Method: yeast growth competition, sequencing
Medium: yeast
Notes: strong parent motif
Reference: not given
Reading: higher = stronger binding
Endpoint: normalised enrichment score
Parent: viral docking peptide; YKVKRRLVFGADD
R5H: 0.827
K2N: 4.48
A11F: 3.3
V3Y: 0.885
F9A: -0.236
R6P: 0.482
V3N: 0.18
K4I: 2.97

Sample 2
Target: UDP-N-acetylglucosamine--peptide N-acetylglucosaminyltransferase 110 kDa subunit (OGT, Homo sapiens, UniProt O15294)
Effect on: binding
Method: phage display NGS
Molecule type: peptide
Concentration: concentration not given
Notes: panning round 2
Reference: input library
Endpoint: enrichment fold change
Residues (O15294 1-1046): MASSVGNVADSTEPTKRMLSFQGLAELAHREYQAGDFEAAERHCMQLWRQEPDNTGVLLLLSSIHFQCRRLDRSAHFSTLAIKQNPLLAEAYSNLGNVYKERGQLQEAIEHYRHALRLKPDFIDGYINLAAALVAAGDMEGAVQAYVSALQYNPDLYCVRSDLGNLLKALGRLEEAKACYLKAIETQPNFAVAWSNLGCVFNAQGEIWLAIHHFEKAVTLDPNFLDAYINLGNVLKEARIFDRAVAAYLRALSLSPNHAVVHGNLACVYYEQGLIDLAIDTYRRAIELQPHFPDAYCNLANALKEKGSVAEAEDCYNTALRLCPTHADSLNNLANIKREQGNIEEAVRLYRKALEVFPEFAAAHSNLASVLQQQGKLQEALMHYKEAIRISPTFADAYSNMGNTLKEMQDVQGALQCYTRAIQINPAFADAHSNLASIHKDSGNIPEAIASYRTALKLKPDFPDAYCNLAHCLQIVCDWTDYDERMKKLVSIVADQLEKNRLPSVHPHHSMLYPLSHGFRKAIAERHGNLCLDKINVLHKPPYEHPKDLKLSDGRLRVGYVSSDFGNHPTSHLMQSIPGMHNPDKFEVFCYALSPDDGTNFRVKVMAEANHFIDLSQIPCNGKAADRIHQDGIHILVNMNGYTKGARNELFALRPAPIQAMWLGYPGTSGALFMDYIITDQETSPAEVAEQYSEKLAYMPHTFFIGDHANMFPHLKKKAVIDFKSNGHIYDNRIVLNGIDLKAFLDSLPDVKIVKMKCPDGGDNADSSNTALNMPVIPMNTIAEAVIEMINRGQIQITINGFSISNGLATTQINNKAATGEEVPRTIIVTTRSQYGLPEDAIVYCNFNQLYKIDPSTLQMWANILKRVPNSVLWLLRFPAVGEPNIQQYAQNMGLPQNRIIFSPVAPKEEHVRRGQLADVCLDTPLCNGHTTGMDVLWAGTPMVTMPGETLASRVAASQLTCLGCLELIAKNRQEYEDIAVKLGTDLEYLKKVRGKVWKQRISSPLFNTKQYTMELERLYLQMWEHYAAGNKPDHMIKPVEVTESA
WIRSPHQHGQIHRS: 6.93
HPQMHPFRGQQHHVY: 5.07
IPNYIHMTHYHQHAH: 6.97
TIYLPKYQIFTAIT: 31.7
HYFPTYMKHHVNFTD: 4.23
DYAQFMPKYLIKQYE: 7.21
HQRMDTSNDWKHHH: 5.78
EMEVYDYFPFYQIQV: 9.98

Single results of other studies
CNC(=O)c1ccc(-c2cnn3ccc(C(=O)N(C)c4ccc(Cl)c(C(=O)OC)c4)cc23)cc1
faecal oocyst shedding (Cryptosporidium parvum; qPCR; IFN-γ knockout mouse, faeces; 1 mg/kg, day 3 post treatment): 6.38 log oocysts/g faeces and 6.34 log oocysts/g faeces and 6.5 log oocysts/g faeces

CCNC(=O)c1cc2c(N3CCOC[C@@H]3C)ccnc2[nH]1
inhibition (OPRD1 (Homo sapiens, UniProt P41143); ligand displacement, radioligand; 10 µM): -0.04%

Some of these lines once more (sample 1):
V3N: 0.18
